{"data": "Measured values from different studies", "note": "± gives the spread as reported."}
{"SMILES": "CC[C@H](C)[C@H](NC(=O)[C@@H]1CCCN1C(=O)CNC(=O)[C@H](Cc1ccccc1)NC(=O)[C@H](CC(N)=O)NC(=O)[C@H](CC(N)=O)NC(=O)[C@H](CO)NC(=O)[C@H](CO)NC(=O)[C@H](Cc1c[nH]cn1)NC(=O)[C@@H](NC(=O)[C@H](CC(C)C)NC(=O)[C@H](Cc1ccccc1)NC(=O)[C@H](CC(N)=O)NC(=O)[C@H](C)NC(=O)[C@H](CC(C)C)NC(=O)[C@H](CCCNC(=N)N)NC(=O)[C@H](CCC(N)=O)NC(=O)[C@@H](NC(=O)[C@H](C)NC(=O)[C@@H]1CSSC[C@H](NC(=O)[C@@H](N)CCCCN)C(=O)N[C@@H](CC(N)=O)C(=O)N[C@@H]([C@@H](C)O)C(=O)N[C@@H](C)C(=O)N[C@@H]([C@@H](C)O)C(=O)N1)[C@@H](C)O)C(C)C)C(=O)N[C@@H](CC(C)C)C(=O)N[C@@H](CO)C(=O)N[C@@H](CO)C(=O)N[C@H](C(=O)N[C@@H](CC(N)=O)C(=O)N[C@H](C(=O)NCC(=O)N[C@@H](CO)C(=O)N[C@@H](CC(N)=O)C(=O)N[C@H](C(=O)N[C@@H](Cc1ccc(O)cc1)C(N)=O)[C@@H](C)O)C(C)C)[C@@H](C)O", "test": "thioflavin T fluorescence", "system": "phosphate buffer", "conditions": "16 µM, pH 7.4, 25 °C", "quantity": "half-time of amyloid formation", "result": "42.8 ± 0.5 h"}
{"SMILES": "N=C(N)NCCC[C@@H]1NC(=O)[C@H](Cc2c[nH]c3ccccc23)NC(=O)[C@@H](CC2CCCCC2)NC(=O)[C@@H]2CCCN2C(=O)[C@@H](NC(=O)CCc2ccccc2)CCCNC1=O", "system": "C57BL/6J mouse, plasma plasma", "conditions": "intraperitoneal, 1 mg/kg single dose", "quantity": "MRT(0-last)", "result": "24.8 min"}
{"SMILES": "O=C(O)C1OC(OC2C(COS(=O)(=O)O)OC(OC3C(C(=O)O)OC(OC4C(COS(=O)(=O)O)OC(OC5C(C(=O)O)OC(OC6C(COS(=O)(=O)O)OC(OC7C(C(=O)O)OC(OC8C(COS(=O)(=O)O)OC(OC9C(C(=O)O)OC(OC%10C(COS(=O)(=O)O)OC(OC%11C(C(=O)O)OC(Oc%12ccc([N+](=O)[O-])cc%12)C(O)C%11O)C(NS(=O)(=O)O)C%10O)C(OS(=O)(=O)O)C9O)C(NS(=O)(=O)O)C8O)C(OS(=O)(=O)O)C7O)C(NS(=O)(=O)O)C6O)C(OS(=O)(=O)O)C5O)C(NS(=O)(=O)O)C4O)C(OS(=O)(=O)O)C3O)C(NS(=O)(=O)O)C2OS(=O)(=O)O)C(O)C(O)C1OC1OC(COS(=O)(=O)O)C(O)C(O)C1NS(=O)(=O)O (stereo not drawn)", "system": "rats", "conditions": "intravenous, 400, 1200 and 3600 µg/kg/day for 7 days", "quantity": "toxicity", "result": "not toxic"}
{"SMILES": "Cn1c(=O)oc2ccc(-c3ccc(CC(C#N)NC(=O)C4CNCCCO4)c(F)c3)cc21 (stereo not drawn)", "system": "human", "conditions": "oral, 10 mg once daily, TEAE, multiple ascending dose", "quantity": "lymphadenopathy incidence", "result": "0%"}
{"SMILES": "CC(NC(=O)OC1OC(C(=O)O)C(O)C(O)C1O)c1cc(Cl)ccc1Cn1c(=S)[nH]c(=O)c2[nH]ccc21 (stereo not drawn)", "system": "dog, both sexes, plasma", "conditions": "oral, 100 mg/kg/day", "scale": "reference: dog over human 5 mg", "quantity": "exposure ratio", "result": 2.8}
{"SMILES": "CC[N+]1(Cc2ccc3ccc(O)c(C#N)c3n2)CCCC1CNC(=O)c1cc(S(N)(=O)=O)ccc1OC (stereo not drawn)", "system": "KMOPS buffer", "conditions": "100 µM, pH 7.2", "quantity": "dark stability", "result": "72 h"}
{"SMILES": "COc1ccc(/C=C/c2ccc(-c3ccc(C)cn3)nc2)cc1", "test": "TCSPC", "system": "MeOH", "quantity": "radiative decay rate constant", "result": "0.35 ns⁻¹"}
{"SMILES": "O=c1nc(NO)ccn1[C@@H]1O[C@H](CO)[C@@H](O)[C@H]1O", "test": "Western blot, measured: CYP2D6", "system": "rat, arthritis model, liver", "conditions": "oral, 80 mg/kg twice daily, 5 days", "scale": "reference: control group", "quantity": "protein level", "result": "0.8 fold"}
{"SMILES": "CC[C@H](C)[C@H](NC(=O)[C@H](Cc1ccccc1)NC(=O)[C@H](CCN)NC(=O)[C@H](CCCNC(=N)N)NC(=O)[C@H](Cc1ccccc1)NC(=O)[C@H](Cc1ccccc1)NC(=O)[C@H](CCCCN)NC(=O)[C@H](CO)NC(=O)[C@H](CC(C)C)NC(=O)[C@H](CCCNC(=N)N)NC(=O)[C@H](CCSC)NC(=O)[C@H](C)N)C(=O)N[C@@H](CC(C)C)C(=O)N[C@@H](CN)C(=O)N[C@@H](CCCNC(=N)N)C(=O)N[C@@H](CCCCN)C(=O)N[C@@H](CCCCN)C(=O)O", "test": "circular dichroism", "system": "20% TFE in PBS", "conditions": "200 µM, pH 7.4, 25 °C", "quantity": "helicity", "result": "5.1%"}
{"note": "Some of these lines once more:"}
{"SMILES": "CC[N+]1(Cc2ccc3ccc(O)c(C#N)c3n2)CCCC1CNC(=O)c1cc(S(N)(=O)=O)ccc1OC (stereo not drawn)", "system": "KMOPS buffer", "conditions": "100 µM, pH 7.2", "quantity": "dark stability", "result": "72 h"}
